Experimental data pooled from the literature.
Every numbered part comes from another study and shows a few of its results, in no order. Substitutions count along the parent as printed.

Study 1
Target: CCNB1, cyclin fold, Cln2 fusion (human)
Method: yeast growth competition, sequencing
Medium: yeast
Notes: weak parent motif
Relative to: not given
Direction: higher = stronger binding
Starting sequence: SLBP docking peptide (human); ARYKRKLLINDFG
`ARYKRKLLINMFG [D11M]` — result for “normalised enrichment score”: 0.863.
For `ARYLRKLLINDFG [K4L]`, “normalised enrichment score” read 0.196.
For `ARYKRKLLINDFK [G13K]`, “normalised enrichment score” read 1.18.
`APYKRKLLINDFG [R2P]`: “normalised enrichment score” 0.317.
For `ARYKRKLLENDFG [I9E]`, “normalised enrichment score” read 0.523.
For `ARSKRKLLINDFG [Y3S]`, “normalised enrichment score” read 1.06.
`ARYKRKLLIMDFG [N10M]` — result for “normalised enrichment score”: 0.36.
`ARYKHKLLINDFG [R5H]` — result for “normalised enrichment score”: 0.167.

Study 2
Target: TATA-box-binding protein 1 (TBP1, Arabidopsis thaliana, UniProt P28147, residues 1-200, full length assumed)
Method: protein-binding microarray
Molecule type: double-stranded DNA, one strand shown
Medium: in vitro
Concentration: not given
Notes: k-mer, scored over probes, only values ≥0.25
Direction: higher = stronger binding
Residues (chain): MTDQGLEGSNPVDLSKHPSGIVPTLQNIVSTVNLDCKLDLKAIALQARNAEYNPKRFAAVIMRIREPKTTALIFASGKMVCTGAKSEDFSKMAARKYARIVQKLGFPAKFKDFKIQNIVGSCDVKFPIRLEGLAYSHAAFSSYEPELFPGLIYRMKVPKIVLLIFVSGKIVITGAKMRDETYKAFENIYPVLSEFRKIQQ
The E-score of `AATAGCT` is reported as 0.26.
The E-score of `AATATTG` is reported as 0.357.
With `CTTTATC` the E-score was 0.294.
`TAATAAA` gave an E-score of 0.433.
`ATAAACG` gave an E-score of 0.268.
For `AACTTAT`, the E-score was 0.314.
`GAATATA` gave an E-score of 0.443.

Study 3
Target: Histone acetyltransferase KAT6A, winged helix 2, GST fusion (KAT6A, Homo sapiens, UniProt Q92794, residues 85-181)
Method: protein binding microarray
Molecule type: double-stranded DNA, one strand shown
Medium: in vitro
Concentration: not given
Notes: 8-mer, flanks averaged, mean of 2 arrays, mostly near background
Relative to: not given
Direction: higher = stronger binding
Target sequence (chain): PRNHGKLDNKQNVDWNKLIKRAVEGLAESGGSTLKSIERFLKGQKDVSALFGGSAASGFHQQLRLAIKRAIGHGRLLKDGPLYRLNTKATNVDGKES
`GGAATTAC` has an E-score of -0.108.
With `CTCCACAC` the E-score was -0.0551.
With `ATCACAGG` the E-score was -0.206.
For `AAAGCCCC`, the E-score was -0.0264.
`GAAGCCAC` has an E-score of -0.0571.
For `CCTATAGA`, the E-score was -0.191.
For `ATTATCAG`, the E-score was 0.00015.
The E-score of `GGGACGGA` is reported as -0.0719.

Further values, each from its own experiment
`PhoQ, residues 284 288 289 292 302 303 TVTVVA` has a fold induction of 0.941 (PhoP, residues 12 14 15 18 19 NIMAP (Escherichia coli, UniProt P23836); Sort-seq, refers to: YFP reporter; E. coli; PhoQ-PhoP variant library, added: 10 µM Mg2+; relative to: high Mg2+ state, higher = stronger signaling).
